Published values from different studies.
A part holds a random share of what one study measured. Substitutions count along the parent as printed.

Block 1
Target: RNA binding protein fox-1 homolog 2, RRM domain, GST-SBP tag (RBFOX2, Homo sapiens, UniProt O43251-10, residues 100-194)
Technique: RNA Bind-n-Seq
Molecule type: RNA
Matrix: in vitro
Concentration: 365 nM
Notes: natural RNA segment, single round, ends assumed
Reference: no-protein control
Direction: higher = stronger binding
Endpoint: RBNS enrichment (R)
Construct (chain): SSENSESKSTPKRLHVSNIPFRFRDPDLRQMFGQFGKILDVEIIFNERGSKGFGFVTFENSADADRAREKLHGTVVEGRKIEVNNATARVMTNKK
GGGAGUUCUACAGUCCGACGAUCCAUGGCUAUUCCAGCACCCCAACCUGUAAUUGCCAAGUCCUCUAAGGUACUAAUUUGUAGCUGCUCUGAAGUAAGGAUUUCGGAUUCAGCUGGUAGGGAAAGACUCUGCAUGGAAUUCUCGGGUGCCAA: 1.01
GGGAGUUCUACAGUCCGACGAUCCAAAUCCUUUGGCCUGAGAACUAAUAUGUUAAUUGCCUUAAAUAAAUUAAUAGAAAUCUAGUCCGUUAAAAAGGGAUGUGUUUCCUGCACUCCCCCGGGGGCUGUGGGGAUGGAAUUCUCGGGUGCCAA: 0.458
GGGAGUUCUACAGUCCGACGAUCGAGUGUGAUUUUGCUGAUUGAAUGUGAGUUUUCAAAUAGGAGUCUUUUUCUGCAAUUUGUUUGCAUUUUUUAGAAGUGCAAACAGUAAGUAAAUAAAAGCCUUCGGUAAUUGGAAUUCUCGGGUGCCAA: 0.522
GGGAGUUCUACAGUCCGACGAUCGUGGCAUUUACUGCUUCUUGAUCUCUAACCACUUGAGUUGGGUCAAGAGGAUUCUGGGCGUGGCAAGCUCUACAGGUCAAGCUGUUUCCUCUAUCCUGGUAACUCCUCACUGGAAUUCUCGGGUGCCAA: 0.286
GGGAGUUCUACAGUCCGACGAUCUUCACUGGAUUUUGGGGUUCCCAGCACCCCAUGUAGAUUUGGGGGUUUCUUUUUGUCUCCCCCACUAUUCAAGGACUCUCCUCUUUACCAAGAAGCACAGAAUUCUGCUGUGGAAUUCUCGGGUGCCAA: 0.284
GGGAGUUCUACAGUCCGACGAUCAAAGUGCAUGCCUCUGUACGUCACACCUUUCUCACCCCUCCCUACCAACACGAGGUGUUUGGUCUGCUUCCAUUCUCUUCUGUGUAGUGCCUGGUUUAUUUAACUAAUUAUGGAAUUCUCGGGUGCCAA: 11.6
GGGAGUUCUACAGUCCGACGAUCUUUUGAAGAAAUUUAUUCGUGAAAGGAAGAGCAGUUGUUAUUUAUUGUGAGGUCUCUUGCUUGUAAAGUAAAACUGUUUUUUUUUUCCCCCUUGUAAACCAUUUAAGUCCUGGAAUUCUCGGGUGCCAA: 0.389
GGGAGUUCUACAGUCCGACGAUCCCGACUAUGCCUUCUUGGGCACUGCACUGCUGCCUCACCAGUGGCAGCACAAGGUGCACUUCAUGGUCUCACUGGACCAUUCCAUGUGGUUCCACGCCCCCUUCCGAGCUUGGAAUUCUCGGGUGCCAA: 0.217
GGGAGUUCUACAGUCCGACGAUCCCAGAUUGGCCCAGCUGCUGAUAGGUGAUUUUUUUUGCCCAUGAAUCAUGUAUCUCUUAGAGAAGAAAAUUCUAUGCCCUACCACAUCACAAGAUCUCCUCCUCAGUGUCUGGAAUUCUCGGGUGCCAA: 0.351
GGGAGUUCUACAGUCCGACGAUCUGGAGUUCAGGUUUAUUUUCUAUUUAAAUGAACUAAAAGCCAGCAUCCUGCCGGGCGUGGUGGCUCACGCCCAUAAUCCAGCACUUUGGGAAGCCGAGGCGGGCAGAUCAUGGAAUUCUCGGGUGCCAA: 0.41
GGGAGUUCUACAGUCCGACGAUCAGAAAUGUGGGGAAGAAAGCAAUUUGAGCAGUAUGUAGCCUACUCACAUGGGCUCUUUUUCAGGUUUGAUGUAAGCAUAGGCUUGCAUAUUCCCAAGGUACAUACUUUGAUGGAAUUCUCGGGUGCCAA: 0.485
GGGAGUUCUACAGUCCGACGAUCUGGUUUCUCCAUGUUUACACUUCAAUCUGCAGGCUUCUUAAAGUGACAGUAUCCCUUAACCUGCCACCGGUUUCCACCUUUCAACCCCCUGGUCUUAUAAGGGGAGGAGAUGGAAUUCUCGGGUGCCAA: 0.463

Block 2
Target: TAR DNA-binding protein 43, full length, His tag (TARDBP, Homo sapiens, UniProt Q13148, residues 1-414)
Technique: RNA Bind-n-Seq
Molecule type: RNA
Matrix: in vitro
Concentration: 20 nM
Notes: 6-mer, flanks averaged, single round
Added: 150 mM KCl
Reference: input library
Direction: higher = stronger binding
Endpoint: 6-mer enrichment (R)
CCAAGG: 1.14
UCCGUC: 0.602
GAAAAU: 0.686
GCUGGA: 1.36
GCGAAU: 0.978
UAUAUA: 0.624
CGCAGA: 0.862
UAACGU: 0.618
CGCUGG: 1.37
CACGGU: 0.837
GUCAUC: 0.612
AAAUGG: 0.966
UGCCUA: 0.649
GAGUGG: 3.64
CCUUAC: 0.606
AGACCU: 0.632
ACGAAU: 0.719

Block 3
Target: CCND2, cyclin fold, Cln2 fusion (human)
Technique: yeast growth competition, sequencing
Matrix: yeast
Notes: weak parent motif
Reference: not given
Direction: higher = stronger binding
Endpoint: normalised enrichment score
Parent: SLBP docking peptide (human); ARYKRKLLINDFG
ARYKRKLAINDFG [L8A]: 0.309
ARYKRKLLIYDFG [N10Y]: 0.24
ARYKRKLLINHFG [D11H]: 0.104
ARYKRKLLINDLG [F12L]: 0.469
ARYKMKLLINDFG [R5M]: 0.322
ARYKRKLQINDFG [L8Q]: 0.201
ARYKRKLLINDFS [G13S]: -0.187
ARYKPKLLINDFG [R5P]: 0.184
ARYKRKLLINDFL [G13L]: -0.0973
AMYKRKLLINDFG [R2M]: 0.406
ARQKRKLLINDFG [Y3Q]: 0.18
ARYKRKLTINDFG [L8T]: 0.154
ARYKRKSLINDFG [L7S]: 0.121
ARYKRKLLLNDFG [I9L]: 0.397
ARYKRKLLIEDFG [N10E]: 0.387
ARYKRKLLINCFG [D11C]: 0.276
ARYKRKDLINDFG [L7D]: 0.399
ARYKRKKLINDFG [L7K]: 0.173
ARYVRKLLINDFG [K4V]: 0.00516
ARYKRFLLINDFG [K6F]: -0.109
IRYKRKLLINDFG [A1I]: -0.215
ARYKRKELINDFG [L7E]: -0.283
ARYKRKLLINQFG [D11Q]: 0.434
ARYKRKHLINDFG [L7H]: -0.183
KRYKRKLLINDFG [A1K]: -0.304

Block 4
Target: RING finger protein unkempt homolog, zinc fingers 1-6, GST-SBP tag (UNK, Homo sapiens, UniProt Q9C0B0, residues 30-357)
Technique: RNA Bind-n-Seq
Molecule type: RNA
Matrix: in vitro
Concentration: not given
Notes: RNA with constant flanks, human and mouse sites, ends assumed
Reference: input RNA pool
Direction: higher = stronger binding
Endpoint: bound/input enrichment
Target sequence (chain): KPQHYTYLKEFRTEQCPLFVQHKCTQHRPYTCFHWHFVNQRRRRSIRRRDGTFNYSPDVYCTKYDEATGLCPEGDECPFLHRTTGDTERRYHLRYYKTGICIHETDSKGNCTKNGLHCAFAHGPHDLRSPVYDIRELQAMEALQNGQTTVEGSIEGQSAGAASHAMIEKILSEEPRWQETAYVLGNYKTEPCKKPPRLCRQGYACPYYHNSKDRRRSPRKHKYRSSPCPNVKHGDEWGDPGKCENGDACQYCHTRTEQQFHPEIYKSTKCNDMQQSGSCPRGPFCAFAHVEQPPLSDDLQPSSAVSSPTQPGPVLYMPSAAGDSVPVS
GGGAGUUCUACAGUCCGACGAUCUUGGCAAAGCAUCCAGAGAAGCUGGCUACUGUCCUUUCUGGGGCGUGUGAUGGAGAGGUUAGAAUUUGGAAUCUAACUCAGCGGAAUUGUAUCCGUACAAUACAAGCACAUGAAGGCUUUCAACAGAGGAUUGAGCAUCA: 0.203 ratio
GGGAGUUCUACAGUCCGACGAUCUAUGGUUUUGAGAAGCCCUCUGCCAUCCAGCAGCGAGCUAUUCUUCCUUGUAUCAAGGGUUAUGAUGUGAUUGCUCAAGCCCAGUCUGGGACUGGGAAAACAGCUACAUUUGCCAUAUCACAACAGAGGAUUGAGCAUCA: 0.125 ratio
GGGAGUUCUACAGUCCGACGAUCCUGGACUUGGAUGACCACGGCGGCAGAACCUUUCUCCGUGUCCUGCUCCACUUGACGAUGCAUGACUACCCACCCCUGGUGUCAGGGGCCCUGCAGCUCCUCUUCCGGCACUUCAGCCAGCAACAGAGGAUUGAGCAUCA: 0.0596 ratio
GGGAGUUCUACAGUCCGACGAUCGUAUAUCAAGGAGUGAAGAAAGAUGGCUUUUUACAACCUCAUUUUUUGGCAGAACAGGAUAUAGUUAUCAUUACCUAUGAUGUACUGCGUUCAGAAUUAAAUUAUGUCGAUAUCCCACAUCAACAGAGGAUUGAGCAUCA: 0.179 ratio
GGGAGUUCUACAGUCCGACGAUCCCGCCUAGUGGGCUAUAUCUGCAACUUGAAGGGAAGAUAAAAGAAACAUCUUCUUUGGAAUAGAUGGGAAUUUUUUUCACUUUCUGUGAACUAAAGCGAUUCAAUGUCUCUUUUGGAUUGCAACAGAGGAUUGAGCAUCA: 0.174 ratio
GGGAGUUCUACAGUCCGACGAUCAGAUUCAAACCUGUGGUACCAUGGCCUCAUGUUGAAGGAGUAGAAGUGGACUUAGAGUCUAUUAGAAGAAUAAACAAGGCCAAAAAUGAACAAGAGCACCAUGCUGGAGGAGAUUCCCAGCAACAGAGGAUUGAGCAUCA: 4.18 ratio
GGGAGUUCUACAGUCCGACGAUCUGGGAUUUGUAAGAAGAACCAUGAUCAGCAUCUUCUUUUAUUGUGUGAUACCUGUAAACUACAUUACCAUCUUGGAUGUCUGGAUCCUCCUCUUACAAGGAUGCCAAGAAAGACCAAAAACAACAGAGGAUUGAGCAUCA: 0.111 ratio
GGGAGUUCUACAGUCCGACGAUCUUGGCCAGUCAGUAUUCAGUUAAUGAAAUGUAUGCCGAAGCACUUAACACUUAUCAAGUUAUAGUCAAAAAUAAGAUGUUUAGCAAUGCAGGAAUAUUGAAAAUGAAUAUGGGAAAUAUCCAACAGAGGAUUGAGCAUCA: 0.4 ratio
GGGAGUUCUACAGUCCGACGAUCCAGCACCCCAUCAAACCAGUGGUUCAUCCAACCGCUACCCCAAGCACUGUUCCUUCUAGUCCAUUUACGCUUCAGUCUGAUCACCAGCCAAAGAAAUCAUUUGAUGCUAAUGGAGCAUCUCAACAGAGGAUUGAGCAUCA: 0.488 ratio
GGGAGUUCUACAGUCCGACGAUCUACAUUUUACACUGUUGGUUUGUAUUUUUGUAUGUUUAUGGUGUCUGCUUGCCUGUGUCUUUUAGUAAAAUAAGACUUUAAAAUUACUUAGCAUGCUAUUUAACAUUUUCUAAAAAUUAUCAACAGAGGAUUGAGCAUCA: 3.15 ratio
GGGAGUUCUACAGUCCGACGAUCCGCGAACGCGAGCCCCGCCCUGCGCGCCUUCCCUCCUGCGCUCGCCGGCCUCUUCUGCCUCUUAGAACCUUCCUGCGGUCGUGCUUGCAUCUCGCUGCUGCAGCCUCCCGGGCUCCGGUCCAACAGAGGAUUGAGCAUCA: 0.221 ratio

Block 5
Target: Interferon regulatory factor 5, full length, phosphomimetic (IRF5, Homo sapiens, UniProt Q13568-2, residues 1-514, K96S/S451D/S453D/S456D/S462D)
Technique: protein-binding microarray
Molecule type: double-stranded DNA, one strand shown
Matrix: in vitro
Concentration: 250 nM
Notes: 60-bp whole probe
Added: salmon DNA 0.4 mg/ml
Reference: random background probes
Direction: higher = stronger binding
Endpoint: log fluorescence
All sequences stand within: GCCTAGCAC … GTCTTGATTCGCTTGACGCTGCTG
CCGGGTTTCACCATGTTGGCGTGCTAG: 1.75 z-score
TCAGCTTCCTCTTTCTCACTGTGCTAG: 0.678 z-score
TTAGGAGTGGGGTTTCGGTTAGTGCTA: 6.71 z-score
TACGGACTGGGGTATCGGGACGTGCTA: -0.177 z-score
GACGGTTTCGGGTCTGGGGACGTGCTA: 6.94 z-score
ACCAGTTTTCTTTTCATTACGTGCTAG: 1.93 z-score
TTTTTGGATGCTGGAAAAATGTGCTAG: 1.05 z-score
GACGGACTGGTGTTTCGGGACGTGCTA: 1.18 z-score
TTAGATATCGGGTTTAGATTAGTGCTA: 2.21 z-score
GACGATATCAGTTTTGAGACGTGCTAG: 1.29 z-score
GACGGACTGGGCTATCGGGACGTGCTA: -0.155 z-score
GTGTATATACTATATGCATGTGTGCTA: 0.482 z-score
CTACACATCTCACTCTAATCGTGCTAG: 0.448 z-score
TTAGGTTTCGGGTTCCGGTTAGTGCTA: 8.8 z-score
GACAGTCTCGGTCTCGGGACGTGCTAG: 0.72 z-score
GACGATATCGGTTTCGGGACGTGCTAG: 7.73 z-score
TTAGGTCTCCTTCTCCTTCAGTGCTAG: -0.14 z-score
GACGGTTTCGACTATCAGGACGTGCTA: 6.95 z-score
GACGGACTGGTCTTTCGGGACGTGCTA: 1.65 z-score
TTTGGTATCGGGTATCGGTTAGTGCTA: 8.22 z-score
TCACCTTACTTTATGTAACTGTGCTAG: 0.143 z-score
TACGGTCTCCTTATCCTGACGTGCTAG: 0.105 z-score
TTAGATTTAAGTTCCGATTAGTGCTAG: 1.03 z-score
TCATTCATGAAGTTTTAAACTGTGCTA: 0.659 z-score
GACAGTTTCGGTCTCGGGACGTGCTAG: 10.8 z-score
